Experimental data from different studies.
Lines come from different studies, so protocols differ. ± marks the error that the study gave.
pfkA T158A: pfkA (Geobacillus stearothermophilus, UniProt P00512, T158A)
Sequence of UniProt P00512 (whole entry, unmodified, looked up): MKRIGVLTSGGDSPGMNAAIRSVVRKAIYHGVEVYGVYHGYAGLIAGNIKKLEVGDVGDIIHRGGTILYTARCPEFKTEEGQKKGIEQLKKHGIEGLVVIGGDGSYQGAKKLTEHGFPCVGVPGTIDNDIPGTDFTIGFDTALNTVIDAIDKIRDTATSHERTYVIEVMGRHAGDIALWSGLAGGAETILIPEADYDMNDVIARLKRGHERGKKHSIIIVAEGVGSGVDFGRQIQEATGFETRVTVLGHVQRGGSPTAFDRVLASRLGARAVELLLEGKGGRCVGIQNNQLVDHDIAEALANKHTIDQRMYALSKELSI
FGR SH2 domain: Tyrosine-protein kinase Fgr, SH2 domain (FGR, Homo sapiens, UniProt P09769)
Sequence of UniProt P09769 (whole entry, looked up): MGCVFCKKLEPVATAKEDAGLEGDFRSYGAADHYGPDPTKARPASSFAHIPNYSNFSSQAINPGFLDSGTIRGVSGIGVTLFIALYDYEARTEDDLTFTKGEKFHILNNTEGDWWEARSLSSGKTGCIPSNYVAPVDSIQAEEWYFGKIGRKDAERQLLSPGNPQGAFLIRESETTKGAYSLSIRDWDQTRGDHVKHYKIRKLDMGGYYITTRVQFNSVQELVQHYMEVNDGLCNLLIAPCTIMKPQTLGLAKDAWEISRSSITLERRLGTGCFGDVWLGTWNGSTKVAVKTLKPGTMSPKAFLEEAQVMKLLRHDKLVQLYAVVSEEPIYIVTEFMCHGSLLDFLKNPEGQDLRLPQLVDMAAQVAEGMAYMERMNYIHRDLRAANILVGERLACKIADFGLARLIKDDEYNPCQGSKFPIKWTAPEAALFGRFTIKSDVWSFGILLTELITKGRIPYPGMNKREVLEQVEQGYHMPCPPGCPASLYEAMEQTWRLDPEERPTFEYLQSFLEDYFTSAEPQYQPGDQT
Sequence of UniProt P42681 (whole entry, looked up): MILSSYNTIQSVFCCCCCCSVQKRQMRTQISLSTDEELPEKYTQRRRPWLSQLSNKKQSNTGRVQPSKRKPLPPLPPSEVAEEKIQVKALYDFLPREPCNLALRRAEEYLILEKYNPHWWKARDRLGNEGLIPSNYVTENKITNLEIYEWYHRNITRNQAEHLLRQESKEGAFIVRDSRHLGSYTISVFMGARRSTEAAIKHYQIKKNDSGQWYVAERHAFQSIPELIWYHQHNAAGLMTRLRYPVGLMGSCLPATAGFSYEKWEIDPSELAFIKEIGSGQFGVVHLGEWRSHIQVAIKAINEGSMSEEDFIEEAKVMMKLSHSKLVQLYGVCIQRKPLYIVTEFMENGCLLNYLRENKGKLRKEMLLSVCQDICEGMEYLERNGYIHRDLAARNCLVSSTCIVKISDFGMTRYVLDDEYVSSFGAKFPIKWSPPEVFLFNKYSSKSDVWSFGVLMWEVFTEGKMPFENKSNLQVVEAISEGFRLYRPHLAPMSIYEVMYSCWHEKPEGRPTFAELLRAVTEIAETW
Sequence of UniProt Q88FY2 (whole entry, unmodified, looked up): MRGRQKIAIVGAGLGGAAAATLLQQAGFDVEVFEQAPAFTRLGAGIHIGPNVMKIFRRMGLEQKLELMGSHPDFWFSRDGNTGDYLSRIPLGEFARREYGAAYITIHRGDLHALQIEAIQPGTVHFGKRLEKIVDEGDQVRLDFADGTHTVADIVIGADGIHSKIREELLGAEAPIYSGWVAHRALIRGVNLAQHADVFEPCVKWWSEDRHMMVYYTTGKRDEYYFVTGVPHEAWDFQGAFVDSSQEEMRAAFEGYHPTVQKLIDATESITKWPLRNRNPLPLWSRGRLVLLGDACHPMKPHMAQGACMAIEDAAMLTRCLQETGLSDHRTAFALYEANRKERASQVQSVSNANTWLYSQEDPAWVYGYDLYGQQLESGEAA
Sequence of UniProt A8C927 (whole entry, looked up): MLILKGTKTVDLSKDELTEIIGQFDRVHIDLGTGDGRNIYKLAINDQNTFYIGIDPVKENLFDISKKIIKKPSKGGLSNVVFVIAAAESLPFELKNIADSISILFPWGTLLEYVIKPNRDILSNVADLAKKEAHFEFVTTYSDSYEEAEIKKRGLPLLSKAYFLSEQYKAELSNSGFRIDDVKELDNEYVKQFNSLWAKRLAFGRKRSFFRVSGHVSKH
Sequence of UniProt O60674 (whole entry, looked up): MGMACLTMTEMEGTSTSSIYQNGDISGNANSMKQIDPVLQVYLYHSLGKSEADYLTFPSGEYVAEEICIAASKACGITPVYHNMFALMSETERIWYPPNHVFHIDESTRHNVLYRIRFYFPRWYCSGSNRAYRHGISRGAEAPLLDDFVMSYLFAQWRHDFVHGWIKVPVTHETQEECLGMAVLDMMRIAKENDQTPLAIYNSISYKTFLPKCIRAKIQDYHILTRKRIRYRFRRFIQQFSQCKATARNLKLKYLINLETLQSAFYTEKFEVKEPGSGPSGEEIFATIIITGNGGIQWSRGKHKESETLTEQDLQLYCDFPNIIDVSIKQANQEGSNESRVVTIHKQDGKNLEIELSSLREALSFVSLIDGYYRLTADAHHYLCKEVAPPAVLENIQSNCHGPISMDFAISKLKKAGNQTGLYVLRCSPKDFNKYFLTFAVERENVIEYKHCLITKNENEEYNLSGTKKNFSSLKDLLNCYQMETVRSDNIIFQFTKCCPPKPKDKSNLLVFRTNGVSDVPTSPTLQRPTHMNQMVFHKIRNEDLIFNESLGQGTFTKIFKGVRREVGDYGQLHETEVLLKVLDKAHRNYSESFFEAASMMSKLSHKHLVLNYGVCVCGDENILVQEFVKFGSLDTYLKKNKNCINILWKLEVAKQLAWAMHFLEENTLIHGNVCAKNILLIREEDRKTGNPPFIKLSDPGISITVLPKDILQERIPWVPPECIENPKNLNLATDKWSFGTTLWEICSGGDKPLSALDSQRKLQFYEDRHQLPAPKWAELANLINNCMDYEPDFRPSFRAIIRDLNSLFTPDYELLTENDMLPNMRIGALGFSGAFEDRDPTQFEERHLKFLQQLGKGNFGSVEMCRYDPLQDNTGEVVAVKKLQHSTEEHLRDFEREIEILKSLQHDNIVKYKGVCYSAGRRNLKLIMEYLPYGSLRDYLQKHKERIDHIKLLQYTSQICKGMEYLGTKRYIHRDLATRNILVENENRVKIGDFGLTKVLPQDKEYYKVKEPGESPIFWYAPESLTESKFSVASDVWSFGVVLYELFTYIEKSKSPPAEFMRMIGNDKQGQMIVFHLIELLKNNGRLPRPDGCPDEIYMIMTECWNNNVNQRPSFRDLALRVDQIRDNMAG
Sequence of UniProt Q06151 (whole entry, unmodified, looked up): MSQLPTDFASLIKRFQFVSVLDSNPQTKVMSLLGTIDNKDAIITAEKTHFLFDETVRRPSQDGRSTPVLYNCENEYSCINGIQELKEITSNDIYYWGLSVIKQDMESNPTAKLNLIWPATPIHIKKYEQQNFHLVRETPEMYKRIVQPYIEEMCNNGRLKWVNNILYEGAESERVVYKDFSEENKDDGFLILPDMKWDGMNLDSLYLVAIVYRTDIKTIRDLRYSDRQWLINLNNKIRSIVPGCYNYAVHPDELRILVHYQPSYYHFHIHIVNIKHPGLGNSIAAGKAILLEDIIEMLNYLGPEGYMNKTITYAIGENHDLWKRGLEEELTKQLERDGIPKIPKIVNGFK
Sequence of UniProt P08510 (whole entry, unmodified, looked up): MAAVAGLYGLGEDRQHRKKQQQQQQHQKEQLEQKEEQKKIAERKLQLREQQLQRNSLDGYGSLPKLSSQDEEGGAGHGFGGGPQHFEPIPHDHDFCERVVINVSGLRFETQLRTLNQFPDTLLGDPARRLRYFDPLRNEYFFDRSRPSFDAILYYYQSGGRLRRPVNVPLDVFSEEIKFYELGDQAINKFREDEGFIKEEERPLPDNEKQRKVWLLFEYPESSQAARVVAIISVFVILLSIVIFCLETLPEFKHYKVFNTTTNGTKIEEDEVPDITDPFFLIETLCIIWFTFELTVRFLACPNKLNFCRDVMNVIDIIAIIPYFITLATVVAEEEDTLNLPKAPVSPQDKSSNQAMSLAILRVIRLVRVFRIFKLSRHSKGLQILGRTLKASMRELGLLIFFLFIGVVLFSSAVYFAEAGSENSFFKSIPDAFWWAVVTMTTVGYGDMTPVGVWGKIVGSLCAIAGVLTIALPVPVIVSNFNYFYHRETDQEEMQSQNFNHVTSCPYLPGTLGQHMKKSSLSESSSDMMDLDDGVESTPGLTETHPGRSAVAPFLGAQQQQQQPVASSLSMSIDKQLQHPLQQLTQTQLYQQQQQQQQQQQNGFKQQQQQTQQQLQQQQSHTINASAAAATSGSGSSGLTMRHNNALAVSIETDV
Sequence of UniProt P24752 (whole entry, looked up): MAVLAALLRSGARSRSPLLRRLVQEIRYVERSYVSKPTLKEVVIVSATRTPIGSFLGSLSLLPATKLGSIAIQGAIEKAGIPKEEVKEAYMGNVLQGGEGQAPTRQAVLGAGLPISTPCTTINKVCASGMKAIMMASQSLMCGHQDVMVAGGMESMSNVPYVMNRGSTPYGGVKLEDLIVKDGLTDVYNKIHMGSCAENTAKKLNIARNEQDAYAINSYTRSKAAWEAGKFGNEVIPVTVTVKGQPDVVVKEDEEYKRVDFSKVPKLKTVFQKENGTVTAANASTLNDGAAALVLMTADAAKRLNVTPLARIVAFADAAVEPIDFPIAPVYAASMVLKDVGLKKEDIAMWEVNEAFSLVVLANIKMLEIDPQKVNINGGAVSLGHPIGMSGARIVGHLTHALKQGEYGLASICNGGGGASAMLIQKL
Sequence of UniProt O60896 (whole entry, looked up): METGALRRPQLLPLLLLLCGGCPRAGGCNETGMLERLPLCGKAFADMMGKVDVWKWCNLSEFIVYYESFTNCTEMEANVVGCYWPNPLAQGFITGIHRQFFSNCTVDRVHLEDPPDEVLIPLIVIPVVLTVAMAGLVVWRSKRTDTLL

SMILES | target or system | test | system | conditions | quantity | result
CC(C)C[C@H](NC(=O)[C@@H](NC(=O)[C@H](CO)NC(=O)[C@H](CO)NC(=O)[C@@H](NC(=O)[C@H](CC(=O)O)NC(=O)[C@H](CC(C)C)NC(=O)[C@@H]1CCCN1C(=O)[C@H](CO)NC(=O)c1ccc2c(c1)C(=O)OC21c2ccc(N(C)C)cc2Oc2cc(N(C)C)ccc21)[C@@H](C)O)C(C)C)C(=O)N[C@@H](Cc1ccc(OP(=O)(O)O)cc1)C(=O)N[C@H](C(=O)N[C@@H](C)C(=O)N[C@H](C(=O)N[C@@H](CCC(N)=O)C(=O)N1CCC[C@H]1C(=O)N[C@@H](CC(N)=O)C(=O)N[C@@H](CCC(=O)O)C(=O)N[C@@H](CC(=O)O)C(=O)O)C(C)C)[C@@H](C)O | Tyrosine-protein kinase JAK2, SH2 domain (JAK2, Homo sapiens, UniProt O60674) | binding |  |  | Kd | 1.4 µM
COC(=O)C1=CCCN(C)C1 | Acetyl-CoA acetyltransferase, mitochondrial (Homo sapiens, UniProt P24752) | binding, thermal shift |  |  | Kd | 33.8 ± 4.4 µM
COc1cc([C@@H]2c3cc4c(cc3[C@@H](O[C@@H]3O[C@@H]5CO[C@@H](C)O[C@H]5[C@H](O)[C@H]3O)[C@H]3COC(=O)[C@H]23)OCO4)cc(OC)c1O | human coronavirus OC43 | virus-induced cell killing | MRC-5 | maximum over 10 doses | maximum inhibition | 0%
O=C(O)c1ccc(S)nc1 | 6-hydroxynicotinate 3-monooxygenase (nicC, Pseudomonas putida, UniProt Q88FY2, H47Q) | binding |  |  | Kd | 2900 ± 100 µM
CC[C@H](C)[C@H](NC(=O)[C@H](CC(=O)O)NC(=O)[C@H](C)NC(=O)[C@H](Cc1ccc(OP(=O)(O)O)cc1)NC(=O)[C@H](CCCCN)NC(=O)[C@@H](NC(=O)[C@H](CC(=O)O)NC(=O)CNC(=O)[C@H](CCCCN)NC(=O)[C@H](CCSC)NC(=O)[C@H](CC(=O)O)NC(=O)[C@H](CC(C)C)NC(=O)[C@H](CCSC)NC(=O)c1ccc2c(c1)C(=O)OC21c2ccc(N(C)C)cc2Oc2cc(N(C)C)ccc21)C(C)C)C(=O)N[C@@H](CCC(=O)O)C(=O)N[C@@H](CO)C(=O)N[C@@H](CO)C(=O)N[C@@H](CC(N)=O)C(=O)N[C@@H](CC(=O)O)C(=O)O | Crk-like protein, SH2 domain (Homo sapiens, UniProt P46109) | binding |  |  | Kd | 1.55 µM
C[S+](CC[C@H](N)C(=O)O)C[C@H]1O[C@@H](n2cnc3c(N)ncnc32)[C@H](O)[C@@H]1O (stereo partly shown) | npmA (Escherichia coli, UniProt A8C927) |  |  |  | Kd | ~80 µM
CSCC[C@H](NC(=O)[C@H](Cc1ccc(OP(=O)(O)O)cc1)NC(=O)CNC(=O)CNC(=O)[C@H](CC(=O)O)NC(=O)[C@H](CO)NC(=O)[C@H](CCC(=O)O)NC(=O)CNC(=O)[C@@H](NC(=O)[C@H](CC(C)C)NC(=O)[C@H](CO)NC(=O)c1ccc2c(c1)C(=O)OC21c2ccc(N(C)C)cc2Oc2cc(N(C)C)ccc21)[C@@H](C)O)C(=O)N[C@@H](CC(=O)O)C(=O)N[C@@H](CCSC)C(=O)N[C@@H](CO)C(=O)N[C@@H](CCCCN)C(=O)N[C@@H](CC(=O)O)C(=O)N[C@@H](CCC(=O)O)C(=O)N[C@@H](CC(=O)O)C(=O)O | Tyrosine-protein kinase TXK, SH2 domain (TXK, Homo sapiens, UniProt P42681) | binding |  |  | Kd | 1.03 µM
C=C(OP(=O)(O)O)C(=O)O | pfkA T158A |  |  |  | Kd | 98 ± 4 µM
CSCC[C@H](NC(=O)CNC(=O)[C@H](Cc1ccccc1)NC(=O)[C@H](CC(=O)O)NC(=O)CNC(=O)c1ccc2c(c1)C(=O)OC21c2ccc(N(C)C)cc2Oc2cc(N(C)C)ccc21)C(=O)N[C@@H](CO)C(=O)N[C@@H](CCCNC(=N)N)C(=O)N[C@@H](CC(=O)O)C(=O)N[C@H](C(=O)N[C@@H](Cc1ccc(OP(=O)(O)O)cc1)C(=O)N[C@@H](CO)C(=O)N[C@H](C(=O)N[C@@H](CC(=O)O)C(=O)N[C@@H](Cc1ccc(O)cc1)C(=O)N[C@@H](Cc1ccc(O)cc1)C(=O)N[C@@H](CCCNC(=N)N)C(=O)N[C@H](C(=O)N[C@@H](CC(=O)O)C(=O)O)C(C)C)[C@@H](C)O)C(C)C | FGR SH2 domain | binding |  |  | Kd | 1.19 µM
O=C(CO)[C@@H](O)[C@H](O)[C@H](O)COP(=O)(O)O | pfkA T158A |  |  |  | Kd | 17 ± 1 µM
Nc1ncnc2c1ncn2[C@@H]1O[C@H](CN(CC[C@H](N)C(=O)O)Cc2cn(CCNC(=O)c3ccc4c(c3)C(=O)OC43c4ccc(O)cc4Oc4cc(O)ccc43)nn2)[C@@H](O)[C@H]1O | Genome polyprotein, NS5 MTase domain (ZIKV, UniProt A0A024B7W1) | binding | Zika virus |  | Kd | 3.5 µM
CC[C@H](C)[C@H](NC(=O)[C@H](CCCNC(=N)N)NC(=O)CNC(=O)[C@H](Cc1c[nH]c2ccccc12)NC(=O)[C@@H]1CSC[C@@H](NC(=O)[C@H](Cc2ccc(O)cc2)NC(=O)[C@H](Cc2c[nH]c3ccccc23)NC(=O)[C@H](CC(C)C)NC(=O)CNC(=O)[C@H](CCCNC(=N)N)NC(=O)c2ccc3c(c2)C(=O)OC32c3ccc(O)cc3Oc3cc(O)ccc32)C(=O)N[C@@H](CC(C)C)C(=O)N[C@@H](CO)C(=O)N1)C(=O)NCC(=O)N[C@@H](CCCNC(=N)N)C(=O)N[C@@H](CCCNC(=N)N)C(=O)NCC(=O)O | srtA (Staphylococcus aureus, UniProt Q2FV99) | binding, fluorescence polarization |  | pH 7.5 | Kd | 1.26 ± 0.13 µM
COc1cc(Nc2ncc(F)c(Nc3ccc4c(n3)NC(=O)C(C)(C)O4)n2)cc(OC)c1OC | Adrenomedullin receptor, AM2; CALCRL/RAMP3 (Homo sapiens, UniProt O60896+Q16602) |  |  |  | IC50 | > 10 µM
CSCC[C@H](NC(=O)[C@H](CC(=O)O)NC(=O)c1ccc2c(c1)C(=O)OC21c2ccc(N(C)C)cc2Oc2cc(N(C)C)ccc21)C(=O)N[C@@H](CO)C(=O)N[C@@H](CCCCN)C(=O)N[C@@H](CC(=O)O)C(=O)N[C@@H](CCC(=O)O)C(=O)N[C@@H](CO)C(=O)N[C@H](C(=O)N[C@@H](CC(=O)O)C(=O)N[C@@H](Cc1ccc(OP(=O)(O)O)cc1)C(=O)N[C@H](C(=O)N1CCC[C@H]1C(=O)N[C@@H](CCSC)C(=O)N[C@@H](CC(C)C)C(=O)N[C@@H](CC(=O)O)C(=O)N[C@@H](CCSC)C(=O)N[C@@H](CCCCN)C(=O)N[C@@H](CC(=O)O)C(=O)O)C(C)C)C(C)C | Signal transducer and activator of transcription 2, SH2 domain (Homo sapiens, UniProt P52630) | binding |  |  | Kd | 0.42 µM
CC(CCc1ccc(O)cc1)NCCc1ccc(O)c(O)c1 (stereo not shown) | ADRB1 (Meleagris gallopavo, UniProt P07700, A282L/C116L/F327A/F338M/M90V/R68S/Y227A) | binding, [3H]-CGP 12177 competition binding | CHO cells expressing ADRB1 β6-m23, whole cells |  | Kd | 3.47 µM
C[n+]1cn([C@@H]2O[C@H](COP(=O)(O)OP(=O)([O-])OP(=O)(O)OC[C@H]3O[C@@H](n4cnc5c(=O)[nH]c(N)nc54)[C@H](O)[C@@H]3O)[C@@H](O)[C@H]2O)c2nc(N)[nH]c(=O)c21 | m7GpppX diphosphatase (DCS1, Saccharomyces cerevisiae, UniProt Q06151, H268N) | binding, first binding event, isothermal titration calorimetry |  | 25 °C | Kd | 0.03 µM
CO[C@@H]1[C@@H](OC(N)=O)[C@@H](O)[C@H](Oc2ccc3c(O)c(NC(=O)c4ccc(O)c(CC=C(C)C)c4)c(=O)oc3c2C)OC1(C)C | TetR-family regulator NalD (Pseudomonas aeruginosa, UniProt Q9HY46, F132A/N129A/V133A) |  |  |  | Kd | 227 µM
CSCC[C@H](N)C(=O)N[C@@H](C)C(=O)N[C@@H](C)C(=O)N[C@H](C(=O)N[C@@H](C)C(=O)NCC(=O)N[C@@H](CC(C)C)C(=O)N[C@@H](Cc1ccc(O)cc1)C(=O)NCC(=O)N[C@@H](CC(C)C)C(=O)NCC(=O)N[C@@H](CCC(=O)O)C(=O)N[C@@H](CC(=O)O)C(=O)N[C@@H](CCCNC(=N)N)C(=O)N[C@@H](CCC(N)=O)C(=O)N[C@@H](Cc1c[nH]cn1)C(=O)N[C@@H](CCCNC(=N)N)C(=O)N[C@@H](CCCCN)C(=O)N[C@@H](CCCCN)C(=O)N[C@@H](CCC(N)=O)C(N)=O)C(C)C | Sh, DEL6-46 (Drosophila melanogaster, UniProt P08510) | ion current, blocker, inside-out patch clamp | Xenopus oocytes | range over 10 µM, pH 7.0, 22–24 °C, at 0 mV | Kd | 7.5 µM
CC[C@H](C)[C@H](NC(=O)[C@H](CC(=O)O)NC(=O)[C@H](C)NC(=O)[C@H](Cc1ccc(O)cc1)NC(=O)[C@H](CCCCN)NC(=O)c1ccc2c(c1)C(=O)OC21c2ccc(N(C)C)cc2Oc2cc(N(C)C)ccc21)C(=O)N[C@@H](CCC(=O)O)C(=O)N[C@@H](CO)C(=O)N[C@@H](CO)C(=O)N[C@@H](CC(N)=O)C(=O)N[C@@H](Cc1ccc(OP(=O)(O)O)cc1)C(=O)N[C@@H](CCSC)C(=O)N[C@@H](C)C(=O)N1CCC[C@H]1C(=O)N[C@@H](Cc1ccc(O)cc1)C(=O)N[C@@H](CC(=O)O)C(=O)N[C@@H](CC(N)=O)C(=O)N[C@@H](Cc1ccc(O)cc1)C(=O)N[C@@H](CC(=O)O)C(=O)O | FGR SH2 domain | binding |  |  | Kd | 1.25 µM
Nc1ncnc2c1ncn2[C@@H]1O[C@H](COP(=O)(O)OP(=O)(O)OP(=O)(O)O)[C@@H](O)[C@H]1O | matB (Rhodopseudomonas palustris, UniProt Q6ND88, C106A/K488A/Q457C/R286C) | binding | HEPES buffer | pH 7.0 | Kd | 5.8 ± 0.3 µM
CN(CC(=O)O)C(=N)NP(=O)(O)O | Creatine kinase U-type, mitochondrial (CKMT1A, Homo sapiens, UniProt P12532, D359N) | microscale thermophoresis |  | pH 7.0, D321N mutant, no substrate | Kd | 12 ± 10 µM
Nc1cc2nc3ccccc3nc2cc1O | TetR-family regulator NalD (Pseudomonas aeruginosa, UniProt Q9HY46) | surface plasmon resonance |  | 25 °C | Kd | 17.6 µM
CC(C)C(=O)Nc1ccc([N+](=O)[O-])c(C(F)(F)F)c1 | human coronavirus OC43 | virus-induced cell killing | MRC-5 | screen | maximum inhibition | 21.1%
C[C@H]1CN(c2n[nH]c3nc(N[C@H]4CC[C@H](NS(=O)(=O)CCC(F)(F)F)CC4)ncc23)CCO1 | Myosin-9 (MYH9, Homo sapiens, UniProt P35579) | biochemical |  |  | IC50 | ≥ 20 µM
C[N+](C)(C)[C@@H](Cc1c[nH]c(=S)[nH]1)C(=O)[O-] | egtUBC (Streptococcus pneumoniae, UniProt A0A0H2ZQB9, I243P/T274G) | binding |  |  | Kd | 43.5 µM

Repeated from above:
SMILES | target or system | test | system | conditions | quantity | result
COc1cc([C@@H]2c3cc4c(cc3[C@@H](O[C@@H]3O[C@@H]5CO[C@@H](C)O[C@H]5[C@H](O)[C@H]3O)[C@H]3COC(=O)[C@H]23)OCO4)cc(OC)c1O | human coronavirus OC43 | virus-induced cell killing | MRC-5 | maximum over 10 doses | maximum inhibition | 0%
O=C(O)c1ccc(S)nc1 | 6-hydroxynicotinate 3-monooxygenase (nicC, Pseudomonas putida, UniProt Q88FY2, H47Q) | binding |  |  | Kd | 2900 ± 100 µM
